# Published values from different studies.
# Parts stem from different laboratories: compare values within a part only.
# Sequence of UniProt P37173 (whole entry, looked up): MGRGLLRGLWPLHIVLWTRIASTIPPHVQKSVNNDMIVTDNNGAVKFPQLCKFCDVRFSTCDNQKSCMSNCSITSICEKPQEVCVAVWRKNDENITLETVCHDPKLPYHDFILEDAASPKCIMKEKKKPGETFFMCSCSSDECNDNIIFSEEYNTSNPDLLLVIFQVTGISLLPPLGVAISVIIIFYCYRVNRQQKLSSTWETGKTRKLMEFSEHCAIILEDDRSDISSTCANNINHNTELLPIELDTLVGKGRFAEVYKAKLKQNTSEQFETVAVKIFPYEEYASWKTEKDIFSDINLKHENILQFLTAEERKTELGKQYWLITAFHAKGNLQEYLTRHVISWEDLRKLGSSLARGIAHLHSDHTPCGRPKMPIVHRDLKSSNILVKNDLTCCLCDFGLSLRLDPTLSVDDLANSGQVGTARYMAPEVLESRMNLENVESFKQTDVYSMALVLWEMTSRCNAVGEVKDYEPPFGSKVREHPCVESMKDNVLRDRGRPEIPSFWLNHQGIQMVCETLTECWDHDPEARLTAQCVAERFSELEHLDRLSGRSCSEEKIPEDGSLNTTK
# Sequence of UniProt P23458 (whole entry, looked up): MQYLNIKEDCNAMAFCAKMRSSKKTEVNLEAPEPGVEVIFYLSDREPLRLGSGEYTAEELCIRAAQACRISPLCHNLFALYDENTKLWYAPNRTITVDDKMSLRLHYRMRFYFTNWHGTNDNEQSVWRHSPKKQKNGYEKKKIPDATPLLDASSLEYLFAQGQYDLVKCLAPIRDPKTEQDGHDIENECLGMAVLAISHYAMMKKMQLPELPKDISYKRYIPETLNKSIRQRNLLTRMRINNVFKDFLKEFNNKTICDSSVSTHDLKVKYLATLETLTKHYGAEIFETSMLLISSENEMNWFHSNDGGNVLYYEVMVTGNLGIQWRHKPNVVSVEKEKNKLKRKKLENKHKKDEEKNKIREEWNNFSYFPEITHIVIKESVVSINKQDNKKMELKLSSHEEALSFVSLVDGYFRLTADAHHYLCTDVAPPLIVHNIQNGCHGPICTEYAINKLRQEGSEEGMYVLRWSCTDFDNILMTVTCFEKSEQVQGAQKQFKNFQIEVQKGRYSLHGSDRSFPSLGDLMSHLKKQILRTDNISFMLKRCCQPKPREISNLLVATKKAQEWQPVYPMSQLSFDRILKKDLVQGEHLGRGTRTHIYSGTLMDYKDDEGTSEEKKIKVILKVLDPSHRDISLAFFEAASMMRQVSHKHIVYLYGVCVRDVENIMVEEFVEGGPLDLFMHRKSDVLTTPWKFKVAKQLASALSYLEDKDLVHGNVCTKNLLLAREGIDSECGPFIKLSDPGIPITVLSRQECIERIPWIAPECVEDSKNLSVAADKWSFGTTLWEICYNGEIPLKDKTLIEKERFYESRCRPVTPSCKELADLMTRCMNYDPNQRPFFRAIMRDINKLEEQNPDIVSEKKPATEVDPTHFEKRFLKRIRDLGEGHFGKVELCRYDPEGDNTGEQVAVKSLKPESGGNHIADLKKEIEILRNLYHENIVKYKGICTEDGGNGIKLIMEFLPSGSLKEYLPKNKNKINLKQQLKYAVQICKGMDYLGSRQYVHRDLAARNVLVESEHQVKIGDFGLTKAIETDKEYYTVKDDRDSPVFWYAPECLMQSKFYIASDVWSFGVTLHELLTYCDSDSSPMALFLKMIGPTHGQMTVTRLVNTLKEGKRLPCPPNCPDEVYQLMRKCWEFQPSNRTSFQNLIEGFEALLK
# Sequence of UniProt Q96RR4 (whole entry, looked up): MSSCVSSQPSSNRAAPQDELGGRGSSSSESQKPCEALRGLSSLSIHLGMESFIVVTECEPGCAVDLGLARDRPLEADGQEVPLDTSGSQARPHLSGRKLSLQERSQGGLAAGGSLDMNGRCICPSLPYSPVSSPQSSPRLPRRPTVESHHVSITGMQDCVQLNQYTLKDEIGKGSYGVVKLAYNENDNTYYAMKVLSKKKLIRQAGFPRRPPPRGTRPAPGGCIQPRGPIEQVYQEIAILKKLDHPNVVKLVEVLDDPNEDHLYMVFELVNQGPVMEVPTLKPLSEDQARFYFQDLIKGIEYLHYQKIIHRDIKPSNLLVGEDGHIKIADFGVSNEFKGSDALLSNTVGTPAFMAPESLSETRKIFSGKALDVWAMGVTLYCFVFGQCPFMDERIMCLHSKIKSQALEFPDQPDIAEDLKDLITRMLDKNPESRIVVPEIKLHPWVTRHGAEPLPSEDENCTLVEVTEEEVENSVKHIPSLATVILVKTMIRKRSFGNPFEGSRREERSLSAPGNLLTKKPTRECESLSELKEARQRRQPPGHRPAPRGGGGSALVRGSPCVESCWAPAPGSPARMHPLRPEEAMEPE
# Sequence of UniProt O15264 (whole entry, looked up): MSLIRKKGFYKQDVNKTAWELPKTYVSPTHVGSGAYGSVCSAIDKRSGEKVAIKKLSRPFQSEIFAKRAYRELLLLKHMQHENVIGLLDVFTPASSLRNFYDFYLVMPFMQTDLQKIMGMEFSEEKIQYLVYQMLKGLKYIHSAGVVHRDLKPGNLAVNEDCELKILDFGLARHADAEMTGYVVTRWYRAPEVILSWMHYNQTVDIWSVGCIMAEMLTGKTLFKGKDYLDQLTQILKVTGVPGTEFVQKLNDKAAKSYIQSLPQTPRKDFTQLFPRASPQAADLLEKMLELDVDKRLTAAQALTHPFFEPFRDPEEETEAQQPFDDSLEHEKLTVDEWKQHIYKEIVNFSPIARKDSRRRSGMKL
# Sequence of UniProt Q08881 (whole entry, looked up): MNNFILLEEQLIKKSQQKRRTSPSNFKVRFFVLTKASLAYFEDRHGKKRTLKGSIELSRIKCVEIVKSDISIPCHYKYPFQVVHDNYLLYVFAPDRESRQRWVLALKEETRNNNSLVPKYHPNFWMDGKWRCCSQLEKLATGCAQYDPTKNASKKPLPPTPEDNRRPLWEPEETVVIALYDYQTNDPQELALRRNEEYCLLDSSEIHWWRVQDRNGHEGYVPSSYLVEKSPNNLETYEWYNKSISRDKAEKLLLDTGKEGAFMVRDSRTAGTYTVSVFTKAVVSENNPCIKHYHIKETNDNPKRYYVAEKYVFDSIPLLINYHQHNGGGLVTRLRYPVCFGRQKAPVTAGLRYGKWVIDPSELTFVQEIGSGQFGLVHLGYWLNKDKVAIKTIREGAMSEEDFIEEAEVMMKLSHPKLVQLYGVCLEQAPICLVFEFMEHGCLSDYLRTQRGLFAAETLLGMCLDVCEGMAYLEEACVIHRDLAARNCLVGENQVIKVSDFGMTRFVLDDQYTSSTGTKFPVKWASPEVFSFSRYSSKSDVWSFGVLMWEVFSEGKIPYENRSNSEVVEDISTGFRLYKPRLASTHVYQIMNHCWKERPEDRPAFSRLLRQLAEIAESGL
# Sequence of UniProt P36897 (whole entry, looked up): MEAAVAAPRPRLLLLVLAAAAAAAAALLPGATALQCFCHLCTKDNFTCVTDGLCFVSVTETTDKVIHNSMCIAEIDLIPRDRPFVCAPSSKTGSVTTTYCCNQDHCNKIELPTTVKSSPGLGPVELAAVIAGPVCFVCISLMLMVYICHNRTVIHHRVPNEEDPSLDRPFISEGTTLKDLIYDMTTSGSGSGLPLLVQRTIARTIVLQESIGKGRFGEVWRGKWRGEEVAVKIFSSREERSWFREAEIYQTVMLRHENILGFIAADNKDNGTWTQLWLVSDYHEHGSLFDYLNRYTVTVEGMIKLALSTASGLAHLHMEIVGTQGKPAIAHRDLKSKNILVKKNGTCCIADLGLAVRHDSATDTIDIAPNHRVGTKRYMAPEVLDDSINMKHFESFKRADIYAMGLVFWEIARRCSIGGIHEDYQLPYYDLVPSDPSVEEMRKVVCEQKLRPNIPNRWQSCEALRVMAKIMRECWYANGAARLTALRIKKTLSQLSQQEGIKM
# Sequence of UniProt Q00535 (whole entry, looked up): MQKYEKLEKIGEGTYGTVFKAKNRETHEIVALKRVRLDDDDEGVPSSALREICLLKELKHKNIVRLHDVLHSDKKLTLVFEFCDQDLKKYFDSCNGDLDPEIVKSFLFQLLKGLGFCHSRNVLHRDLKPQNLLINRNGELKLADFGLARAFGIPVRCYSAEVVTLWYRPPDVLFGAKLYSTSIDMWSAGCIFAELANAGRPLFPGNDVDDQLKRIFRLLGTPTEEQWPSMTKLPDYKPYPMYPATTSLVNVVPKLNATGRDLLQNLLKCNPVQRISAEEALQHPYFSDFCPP
# Sequence of UniProt P53778 (whole entry, looked up): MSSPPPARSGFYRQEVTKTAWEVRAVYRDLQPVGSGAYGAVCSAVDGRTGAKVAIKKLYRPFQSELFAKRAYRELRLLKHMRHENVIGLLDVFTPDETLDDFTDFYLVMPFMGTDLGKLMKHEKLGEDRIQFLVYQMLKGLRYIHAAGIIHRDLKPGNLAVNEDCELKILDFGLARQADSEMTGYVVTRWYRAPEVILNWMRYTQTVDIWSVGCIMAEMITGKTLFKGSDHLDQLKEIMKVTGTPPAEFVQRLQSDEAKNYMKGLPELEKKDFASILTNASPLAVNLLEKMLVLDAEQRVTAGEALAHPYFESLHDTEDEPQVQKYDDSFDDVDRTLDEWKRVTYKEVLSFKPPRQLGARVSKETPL
# Sequence of UniProt Q9BVS4 (whole entry, looked up): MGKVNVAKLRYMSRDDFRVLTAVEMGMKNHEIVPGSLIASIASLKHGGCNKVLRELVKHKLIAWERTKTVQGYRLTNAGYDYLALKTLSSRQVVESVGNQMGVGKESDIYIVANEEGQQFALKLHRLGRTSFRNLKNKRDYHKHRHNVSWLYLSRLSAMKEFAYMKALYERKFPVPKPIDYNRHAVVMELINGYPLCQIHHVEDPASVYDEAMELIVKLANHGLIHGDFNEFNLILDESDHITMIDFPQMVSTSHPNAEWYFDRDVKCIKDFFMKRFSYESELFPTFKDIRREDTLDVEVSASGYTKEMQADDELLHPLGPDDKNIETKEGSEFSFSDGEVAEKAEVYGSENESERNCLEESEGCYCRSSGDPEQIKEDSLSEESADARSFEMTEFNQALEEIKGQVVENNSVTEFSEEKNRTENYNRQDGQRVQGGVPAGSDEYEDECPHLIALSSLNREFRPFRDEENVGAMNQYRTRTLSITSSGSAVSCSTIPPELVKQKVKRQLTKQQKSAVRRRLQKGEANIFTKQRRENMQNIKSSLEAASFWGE

# Series 1 — read-out: enzyme activity; action: inhibitor; tested at: 0.5 µM; relative to: control
# Compound: CSc1nc(-c2ccnc(N[C@@H](C)c3ccccc3)c2)c(-c2ccc(F)cc2)[nH]1 (racemic)
target,remaining activity
"Cyclin-dependent kinase 5, with p25 (CDK5, Homo sapiens, UniProt Q00535)",76.2%
"PRKACA (Homo sapiens, UniProt P17612)",96%
"MAP3K3 (Homo sapiens, UniProt Q99759)",80%
"CAMKK2 (Homo sapiens, UniProt Q96RR4)",84%
"TGFBR2 (Homo sapiens, UniProt P37173)",96.5%
"OXSR1 (Homo sapiens, UniProt O95747)",88.2%
"IKBKE (Homo sapiens, UniProt Q14164)",84%
"cGMP-dependent protein kinase 1, isoform beta (PRKG1, Homo sapiens, UniProt Q13976)",105%
"MAPK9 (Homo sapiens, UniProt P45984)",31.1%
"TGFBR1 (Homo sapiens, UniProt P36897)",93.3%
"STK11 (Homo sapiens, UniProt Q15831)",95.4%

# Series 2 — cell line: HaCaT; tested at: 100 µM; time: 36 h
SMILES,viability [%]
CCCCc1oc2ccc(NS(C)(=O)=O)cc2c1C(=O)c1ccc(OCCCN(CCCC)CCCC)cc1,6.27
COc1ccc2cc(CCC(C)=O)ccc2c1,70.9
CS(=O)(=O)c1ccc(C(=O)Nc2ccc(Cl)c(-c3ccccn3)c2)c(Cl)c1,46.5
CNCCCC1c2ccccc2C=Cc2ccccc21,4.69
NNC(=O)c1ccncc1,88.1
C[N+](C)(C)CCO,92.1
Nc1nccs1,90.3
CC(C)C[C@H](NC(=O)[C@H](Cc1ccccc1)NC(=O)c1cnccn1)B(O)O,5.95
CC(C(=O)O)c1ccc(-c2ccccc2)c(F)c1 (centres unmarked),89.8
C=CCc1ccc(O)c(-c2cc(CC=C)ccc2O)c1,4.81

# Series 3 — host: mouse; matrix: microsomes or S9; tested at: 2 µM; time: 0.5 h
SMILES,remaining compound
CC(=O)N1N=C(c2ccc(C)cc2)OC1c1ccc(C(C)C)cc1 (centres unmarked),6.14%
C1=Cn2nc(/C=C/c3c[nH]c4ccccc34)nc2-c2ccccc2O1,32.3%
O=C(Nc1n[nH]c2cc(Br)ccc12)c1[nH]nc2c1CCCC2,0.0743%
Cc1cc(O)c(C(=O)O)cc1S(=O)(=O)Nc1ccc(NC(=O)NCC2CCCO2)cc1 (centres unmarked),70.9%
Cn1c(Nc2ccccc2Cl)cc(=O)n(C)c1=O,60.2%
O=c1[nH]nc2c3c(nc(-c4ccncc4)n12)CCCC3,69.3%
Nc1cc(S(=O)(=O)c2ccc(Nc3ccccc3)c(N)c2)ccc1Nc1ccccc1,47.8%
O=C(NCc1ccncc1)c1cc(-c2ccc(Br)s2)n[nH]1,50.6%
CC(NCc1csc(Br)c1)c1cc2ccccc2o1 (centres unmarked),0.0212%
COc1ccccc1NC(=O)c1cc2c(OC)cccc2[nH]1,5.46%

# Series 4 — read-out: cell-free assay; technique: competition with immobilised ligand; tested at: 1 µM
# SMILES: COc1cc(-c2cn(C3CCc4ccccc4N(CC(F)(F)F)C3=O)nn2)ccc1-n1ccc(C)n1 (centres unmarked)
target,remaining binding
"MAPK12 (Homo sapiens, UniProt P53778)",100%
"IRAK4 (Homo sapiens, UniProt Q9NWZ3)",95%
"EPHB4 (Homo sapiens, UniProt P54760)",92%
"EPHA6 (Homo sapiens, UniProt Q9UF33)",98%
"MAPK7 (Homo sapiens, UniProt Q13164)",100%
"Ribosomal protein S6 kinase alpha-1, N-terminal kinase domain (RPS6KA1, Homo sapiens, UniProt Q15418)",82%
"ITK (Homo sapiens, UniProt Q08881)",100%
"Tyrosine-protein kinase JAK1, JH1 (JAK1, Homo sapiens, UniProt P23458)",80%
"MAPK13 (Homo sapiens, UniProt O15264)",88%
"MAST1 (Homo sapiens, UniProt Q9Y2H9)",100%
"PDPK1 (Homo sapiens, UniProt O15530)",100%
"MAP3K2 (Homo sapiens, UniProt Q9Y2U5)",100%
"TAOK2 (Homo sapiens, UniProt Q9UL54)",100%
"MARK2 (Homo sapiens, UniProt Q7KZI7)",93%
"RIOK2 (Homo sapiens, UniProt Q9BVS4)",96%
"BTK (Homo sapiens, UniProt Q06187)",82%

# Repeated from above (series 4):
target,remaining binding
"MAPK13 (Homo sapiens, UniProt O15264)",88%
"MAST1 (Homo sapiens, UniProt Q9Y2H9)",100%
"PDPK1 (Homo sapiens, UniProt O15530)",100%
"MAP3K2 (Homo sapiens, UniProt Q9Y2U5)",100%
"TAOK2 (Homo sapiens, UniProt Q9UL54)",100%
"MARK2 (Homo sapiens, UniProt Q7KZI7)",93%
"RIOK2 (Homo sapiens, UniProt Q9BVS4)",96%
